Measured values of several laboratories.
A part holds a random share of what one study measured.
Sequence of UniProt Q9C0B0 (30-357, looked up): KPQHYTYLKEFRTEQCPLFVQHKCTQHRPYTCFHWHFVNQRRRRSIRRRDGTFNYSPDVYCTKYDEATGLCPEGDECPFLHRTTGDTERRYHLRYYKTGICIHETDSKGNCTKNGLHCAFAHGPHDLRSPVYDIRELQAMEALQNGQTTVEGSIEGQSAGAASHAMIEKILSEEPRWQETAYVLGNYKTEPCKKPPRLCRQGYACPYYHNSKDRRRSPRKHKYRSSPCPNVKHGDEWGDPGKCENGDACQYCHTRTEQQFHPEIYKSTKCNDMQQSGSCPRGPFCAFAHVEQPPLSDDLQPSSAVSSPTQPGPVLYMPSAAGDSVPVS

Series 1
Target: Histone acetyltransferase KAT6A, winged helix 1, GST fusion (KAT6A, Homo sapiens, UniProt Q92794, residues 1-85)
Method: protein binding microarray
Molecule type: double-stranded DNA, one strand shown
Sample: in vitro
Tested at: not given
Setting: 8-mer, flanks averaged, mean of 2 arrays, mostly near background
Baseline: not given
Direction: higher = stronger binding
Residues (chain): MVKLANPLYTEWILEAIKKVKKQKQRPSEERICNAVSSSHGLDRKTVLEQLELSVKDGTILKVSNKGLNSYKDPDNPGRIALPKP
| Oligonucleotide | E-score |
| --- | --- |
| ACAGTAGG | -0.18 |
| GCTTCAGA | -0.219 |
| TAGACGCA | -0.0012 |

Other studies, line by line
CBF1 full length, N-terminal tag: Centromere-binding protein 1, full length, N-terminal tag (CBF1, Saccharomyces cerevisiae, UniProt P17106, residues 1-351)
Sequence of UniProt P17106 (whole entry, looked up): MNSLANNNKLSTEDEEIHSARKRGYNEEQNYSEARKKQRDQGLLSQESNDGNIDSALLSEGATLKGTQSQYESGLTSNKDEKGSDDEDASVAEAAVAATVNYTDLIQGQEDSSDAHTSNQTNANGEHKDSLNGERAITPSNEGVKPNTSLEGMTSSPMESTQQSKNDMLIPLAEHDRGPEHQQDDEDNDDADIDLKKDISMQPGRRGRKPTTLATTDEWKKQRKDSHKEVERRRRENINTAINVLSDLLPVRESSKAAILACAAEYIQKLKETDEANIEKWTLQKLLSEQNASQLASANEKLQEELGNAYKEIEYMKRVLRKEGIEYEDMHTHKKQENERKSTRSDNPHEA
| Molecule | target | assay | system | setting | scale | quantity | result |
| --- | --- | --- | --- | --- | --- | --- | --- |
| CTACAACCATGACGTGTTGTGTTTCTATTCAGCTTCGTCTTGATTCGCTTGACGCTGCTG | CBF1 full length, N-terminal tag | protein-binding microarray | double-stranded DNA, one strand shown, in vitro | 0.8 µM, whole 60-bp probe, no competitor | higher = stronger binding | fluorescence intensity | 538 a.u. |
| GGGAGUUCUACAGUCCGACGAUCGUGCAAGGAAAUUAUCCCAACUAGUGAAUUUAUUAACAGUAAGUUGACAGCAAAAGCAAAUAGGCAGCUUCAGGAUCCUUUAGUAAUCAUGACGGGAAACAUCCCAACAUGGCUUACUGACAACAGAGGAUUGAGCAUCA | RING finger protein unkempt homolog, zinc fingers 1-6, SBP tag (UNK, Homo sapiens, UniProt Q9C0B0, residues 30-357) | RNA Bind-n-Seq | RNA, in vitro | 100 nM, RNA with constant flanks, vertebrate orthologous sites, ends assumed | baseline: input RNA pool, higher = stronger binding | bound/input enrichment | 0.853 ratio |
| CTAGGCATAAGAAGGCACGTCCCCTGAAAGTAGTTCGTCTTGATTCGCTTGACGCTGCTG | CBF1 full length, N-terminal tag | protein-binding microarray | double-stranded DNA, one strand shown, in vitro | 0.8 µM, whole 60-bp probe, no competitor | higher = stronger binding | fluorescence intensity | 507 a.u. |
| GGGAGUUCUACAGUCCGACGAUCAUUGAGCCUGUAUUUCCAGAGAACACAGAAAACUCUGAAAAAAUAUCCUUUCAGCUUCAUUUAGCUUUAACUUCAAAUUCAUCUUGGGUUCAGUGUCCCAGCCAUUUGGAACUCAUGAAUCAACAGAGGAUUGAGCAUCA | RING finger protein unkempt homolog, zinc fingers 1-6, GST-SBP tag (UNK, Homo sapiens, UniProt Q9C0B0, residues 30-357) | RNA Bind-n-Seq | RNA, in vitro | not given, RNA with constant flanks, human and mouse sites, ends assumed | baseline: input RNA pool, higher = stronger binding | bound/input enrichment | 0.597 ratio |
| GTTTAGAATCCCCATCACGTACGAGTTGAAGAATTCGTCTTGATTCGCTTGACGCTGCTG | Centromere-binding protein 1, full length, His-tagged (CBF1, Saccharomyces cerevisiae, UniProt P17106, residues 1-351) | competition protein-binding microarray | double-stranded DNA, one strand shown, in vitro | 2 µM, whole 60-bp probe, lowest competitor level, added: Pho4 competitor, 0.05 µM | higher = stronger binding | fluorescence intensity | 103 a.u. |
| PhoQ, residues 284 288 289 292 302 303 SCEHLI | PhoP, residues 12 14 15 18 19 NMSFL (Escherichia coli, UniProt P23836) | Sort-seq, measured: YFP reporter | E. coli | PhoQ-PhoP variant library, added: 10 µM Mg2+ | baseline: high Mg2+ state, higher = stronger signaling | fold induction | 16.8 |

For quick reference, copied from above (series 1):
| Oligonucleotide | E-score |
| --- | --- |
| TAGACGCA | -0.0012 |
